{"data": "Assay results pooled from the literature", "note": "A part holds a random share of what one study measured."}
{"data": "Series 1", "target": "Prothrombin, mature alpha-thrombin (F2, Homo sapiens, UniProt P00734)", "technique": "aptamer microarray, sandwich", "form": "DNA with 2'F-ANA", "matrix": "in vitro", "concentration": "200 nM", "notes": "whole 15-mer aptamer, many near background", "together with": "Cy3 exosite-II aptamer, 400 nM", "reading": "higher = stronger binding", "sequence": "GGTTGGTGTGGTTGG"}
{"Modification": "2'F-ANA at 1 2 5 7 9 11 12 13 14 15", "mean fluorescence intensity": "48.1 a.u."}
{"Modification": "2'F-ANA at 1 2 5 6 7 8 10 12 13", "mean fluorescence intensity": "55.3 a.u."}
{"Modification": "2'F-ANA at 2 3 7 8 10 11", "mean fluorescence intensity": "378 a.u."}
{"Modification": "2'F-ANA at 1 3 6 7 9 10 11 13 14", "mean fluorescence intensity": "55.7 a.u."}
{"Modification": "2'F-ANA at 1 2 4 7 15", "mean fluorescence intensity": "166 a.u."}
{"data": "Series 2", "target": "Histone acetyltransferase KAT6A, both winged helices, GST fusion (KAT6A, Homo sapiens, UniProt Q92794, residues 1-181)", "technique": "protein binding microarray", "form": "double-stranded DNA, one strand shown", "matrix": "in vitro", "concentration": "not given", "notes": "8-mer, flanks averaged, mean of 2 arrays, mostly near background", "baseline": "not given", "reading": "higher = stronger binding", "Residues (chain)": "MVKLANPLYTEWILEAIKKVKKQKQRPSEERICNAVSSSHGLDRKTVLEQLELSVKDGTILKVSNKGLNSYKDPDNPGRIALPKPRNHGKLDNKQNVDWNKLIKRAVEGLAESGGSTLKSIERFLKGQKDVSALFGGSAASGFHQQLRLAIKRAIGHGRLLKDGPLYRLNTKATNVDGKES"}
{"Sequence": "TATGAGGA", "E-score": -0.187}
{"Sequence": "CCTGGTAA", "E-score": -0.141}
{"Sequence": "GTGAAAAC", "E-score": 0.0769}
{"Sequence": "ACATCGGT", "E-score": -0.0691}
{"data": "Series 3", "target": "Protein C-ets-1 (ETS1, Homo sapiens, UniProt P14921, residues 1-441, K379A, full length assumed)", "technique": "protein-binding microarray", "form": "double-stranded DNA, one strand shown", "matrix": "in vitro", "concentration": "not given", "notes": "k-mer, scored over probes, only values ≥0.25", "reading": "higher = stronger binding", "Target sequence (chain)": "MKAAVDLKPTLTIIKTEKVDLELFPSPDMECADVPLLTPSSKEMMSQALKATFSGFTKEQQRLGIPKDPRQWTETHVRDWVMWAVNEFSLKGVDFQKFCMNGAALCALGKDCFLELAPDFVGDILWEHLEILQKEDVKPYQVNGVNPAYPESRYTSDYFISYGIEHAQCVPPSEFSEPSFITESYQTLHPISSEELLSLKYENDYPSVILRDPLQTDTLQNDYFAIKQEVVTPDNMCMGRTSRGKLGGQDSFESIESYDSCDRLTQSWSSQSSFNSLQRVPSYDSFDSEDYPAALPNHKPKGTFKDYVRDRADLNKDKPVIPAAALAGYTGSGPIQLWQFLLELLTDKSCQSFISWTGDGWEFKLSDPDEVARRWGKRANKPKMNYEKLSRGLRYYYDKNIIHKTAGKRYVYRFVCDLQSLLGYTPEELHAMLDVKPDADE"}
{"Sequence": "CCGGTTAA", "E-score": 0.437}
{"Sequence": "AATATATA", "E-score": 0.257}
{"Sequence": "TACATATA", "E-score": 0.282}
{"Sequence": "GTAAACGA", "E-score": 0.269}
{"Sequence": "ACGACCGG", "E-score": 0.375}
{"data": "Further values, each from its own experiment"}
{"Molecule": "PhoQ, residues 284 288 289 292 302 303 SLSLLA", "target": "PhoP, residues 12 14 15 18 19 AGCRL (Escherichia coli, UniProt P23836)", "test": "Sort-seq, item: YFP reporter", "system": "E. coli", "conditions": "PhoQ-PhoP variant library, together with: 10 µM Mg2+", "scale": "baseline: high Mg2+ state, higher = stronger signaling", "quantity": "fold induction", "result": 24}
{"note": "Repeated from above (series 2):"}
{"Sequence": "ACATCGGT", "E-score": -0.0691}
{"Sequence": "GTGAAAAC", "E-score": 0.0769}
